{"data": "Literature values that unrelated publications cite", "note": "Each numbered part shows a few of the values that one paper quotes. ± gives the spread as reported.", "sequence of UniProt P25084 (whole entry, looked up)": "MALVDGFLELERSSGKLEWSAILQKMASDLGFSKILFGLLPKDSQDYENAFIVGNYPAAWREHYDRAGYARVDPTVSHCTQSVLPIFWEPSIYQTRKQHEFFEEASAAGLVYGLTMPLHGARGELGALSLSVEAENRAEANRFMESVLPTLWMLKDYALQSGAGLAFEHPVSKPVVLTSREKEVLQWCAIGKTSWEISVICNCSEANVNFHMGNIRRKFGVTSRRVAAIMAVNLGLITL"}
{"data": "Sample 1", "organism": "Escherichia coli"}
{"SMILES": "C[C@H](NC(=O)CNC(=O)[C@@H]1CCCN1C(=O)[C@H](CO)NC(=O)CNC(=O)CN)C(=O)N[C@@H](CCCCN)C(=O)N[C@@H](CCCCN)C(=O)N[C@@H](CC(N)=O)C(=O)N[C@H](C(=O)N[C@@H](CCCCN)C(=O)N[C@@H](CO)C(=O)N[C@@H](C)C(=O)N[C@@H](CS)C(=O)NCC(=O)N[C@@H](CCCCN)C(=O)N[C@@H](C)C(=O)N[C@@H](CS)C(=O)N[C@@H](C)C(=O)N[C@@H](CS)C(=O)N[C@@H](Cc1c[nH]cn1)C(=O)O)[C@@H](C)O", "MIC [µM]": "> 128"}
{"SMILES": "CC[C@H](C)[C@H](NC(=O)CNC(=O)[C@H](CCC(N)=O)NC(=O)[C@@H](NC(=O)[C@H](C)NC(=O)[C@H](CCC(N)=O)NC(=O)[C@H](C)NC(=O)[C@@H](NC(=O)[C@H](C)NC(=O)[C@H](CCCNC(=N)N)NC(=O)[C@H](Cc1ccccc1)NC(=O)[C@H](C)NC(=O)[C@H](CC(N)=O)NC(=O)[C@H](CCCCN)NC(=O)CNC(=O)[C@H](C)NC(=O)[C@H](CCCCN)NC(=O)[C@H](CCC(=O)O)NC(=O)[C@@H](NC(=O)[C@H](CCCCN)NC(=O)[C@H](CCCCN)NC(=O)CN)[C@@H](C)CC)C(C)C)C(C)C)C(=O)NCC(=O)N[C@@H](Cc1ccccc1)C(=O)N[C@@H](C)C(=O)N[C@@H](CCCNC(=N)N)C(=O)N[C@@H](C)C(=O)N[C@@H](CC(C)C)C(=O)NCC(=O)N[C@H](C(=O)N[C@@H](C)C(=O)N[C@H](C(=O)N[C@@H](CC(=O)O)C(=O)O)C(C)C)[C@@H](C)CC", "MIC [µM]": 2}
{"SMILES": "CC[C@H](C)[C@H](NC(=O)[C@@H]1CCCN1C(=O)CNC(=O)[C@H](CC(C)C)NC(=O)[C@H](CCCCN)NC(=O)[C@H](CCCNC(=N)N)NC(=O)[C@H](Cc1c[nH]c2ccccc12)NC(=O)[C@H](C)NC(=O)[C@H](CC(N)=O)NC(=O)[C@H](CCCCN)NC(=O)[C@H](CC(C)C)NC(=O)[C@H](CCCCN)NC(=O)[C@H](CC(N)=O)NC(=O)[C@H](CCCNC(=N)N)NC(=O)[C@H](C)NC(=O)[C@H](CCCNC(=N)N)NC(=O)[C@H](CCCNC(=N)N)NC(=O)[C@H](Cc1ccccc1)NC(=O)[C@H](Cc1c[nH]c2ccccc12)NC(=O)CN)C(=O)N[C@H](C(=O)NCC(=O)N1CCC[C@H]1C(=O)N[C@@H](CC(C)C)C(=O)N[C@@H](CC(C)C)C(=O)N[C@H](C(=O)N[C@@H](CCCNC(=N)N)C(=O)O)[C@@H](C)O)C(C)C", "MIC [µM]": 4}
{"data": "Single results of other studies"}
{"Structure (SMILES)": "COc1ccc(Nc2nc(Nc3ccc(OCC[18F])cc3)ncc2Br)cc1", "system": "S180 tumour-bearing mice, brain", "setting": "intravenous, 60 min", "quantity": "tissue uptake", "value": "1.51 ± 0.12 %ID/g"}
{"Structure (SMILES)": "CCC(=O)OC1C(=O)C2(C)C(O)CC3OCC3(OC(C)=O)C2C(OC(=O)c2cccc(OC(F)F)c2)C2(O)CC(OC(=O)C(O)C(C=C(C)C)NC(=O)OC(C)(C)C)C(C)=C1C2(C)C (stereo not drawn)", "tested on": "HCT-116", "assay": "cytotoxicity", "quantity": "IC50", "value": "1.45 nM"}
{"Structure (SMILES)": "O=C(CCCOc1cccc(Br)c1)N[C@H]1CCSC1=O", "tested on": "lasR (Pseudomonas aeruginosa, UniProt P25084)", "assay": "rsaL-gfp reporter, partial agonist", "setting": "100 nM", "quantity": "activation", "value": "~75%"}
